Published values pooled from the literature.
A part holds a random share of what one study measured. Values joined by “and” are separate records of one study, mostly repeats; a detail may differ.
UniProt P07948, sequence (whole entry, looked up): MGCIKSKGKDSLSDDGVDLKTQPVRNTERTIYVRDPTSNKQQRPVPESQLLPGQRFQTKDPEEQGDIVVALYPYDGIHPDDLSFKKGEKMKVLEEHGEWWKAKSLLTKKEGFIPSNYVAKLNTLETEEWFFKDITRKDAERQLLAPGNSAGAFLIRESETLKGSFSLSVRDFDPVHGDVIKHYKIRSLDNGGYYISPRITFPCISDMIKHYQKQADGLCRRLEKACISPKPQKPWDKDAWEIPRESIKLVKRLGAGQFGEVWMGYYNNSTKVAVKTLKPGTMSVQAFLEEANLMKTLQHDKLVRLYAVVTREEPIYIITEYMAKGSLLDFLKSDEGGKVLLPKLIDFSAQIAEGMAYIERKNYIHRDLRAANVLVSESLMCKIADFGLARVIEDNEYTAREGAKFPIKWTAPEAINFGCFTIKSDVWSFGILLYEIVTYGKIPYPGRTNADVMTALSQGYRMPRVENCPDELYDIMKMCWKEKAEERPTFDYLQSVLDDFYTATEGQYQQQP
UniProt O14920, sequence (whole entry, looked up): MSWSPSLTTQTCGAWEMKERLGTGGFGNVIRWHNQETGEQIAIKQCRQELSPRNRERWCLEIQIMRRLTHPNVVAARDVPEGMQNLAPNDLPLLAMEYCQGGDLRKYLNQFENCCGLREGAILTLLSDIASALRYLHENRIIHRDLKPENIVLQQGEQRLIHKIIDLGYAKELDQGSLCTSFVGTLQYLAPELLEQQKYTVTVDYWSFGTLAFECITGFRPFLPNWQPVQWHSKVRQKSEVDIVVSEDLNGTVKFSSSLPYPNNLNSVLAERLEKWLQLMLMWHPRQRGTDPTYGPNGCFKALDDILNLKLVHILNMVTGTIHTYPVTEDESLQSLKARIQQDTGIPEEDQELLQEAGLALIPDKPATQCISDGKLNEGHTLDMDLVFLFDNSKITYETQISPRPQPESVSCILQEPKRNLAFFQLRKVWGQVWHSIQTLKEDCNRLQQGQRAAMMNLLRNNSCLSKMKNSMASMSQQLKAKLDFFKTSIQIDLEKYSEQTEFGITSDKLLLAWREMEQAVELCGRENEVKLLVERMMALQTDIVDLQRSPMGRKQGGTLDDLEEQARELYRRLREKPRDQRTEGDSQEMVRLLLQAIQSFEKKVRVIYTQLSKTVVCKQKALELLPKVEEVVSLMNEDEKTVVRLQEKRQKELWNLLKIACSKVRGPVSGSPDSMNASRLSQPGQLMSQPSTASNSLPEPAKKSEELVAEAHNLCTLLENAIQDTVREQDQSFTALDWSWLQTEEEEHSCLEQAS
UniProt Q9UIK4, sequence (whole entry, looked up): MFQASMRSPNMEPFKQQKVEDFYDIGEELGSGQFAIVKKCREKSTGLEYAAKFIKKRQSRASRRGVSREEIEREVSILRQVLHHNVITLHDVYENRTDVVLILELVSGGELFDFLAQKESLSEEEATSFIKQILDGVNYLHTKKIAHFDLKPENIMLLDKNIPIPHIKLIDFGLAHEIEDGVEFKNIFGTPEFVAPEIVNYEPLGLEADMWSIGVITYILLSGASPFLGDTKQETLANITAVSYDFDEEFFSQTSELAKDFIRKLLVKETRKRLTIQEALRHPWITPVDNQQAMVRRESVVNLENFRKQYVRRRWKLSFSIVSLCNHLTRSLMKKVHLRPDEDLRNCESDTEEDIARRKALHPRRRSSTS
UniProt Q99759, sequence (whole entry, looked up): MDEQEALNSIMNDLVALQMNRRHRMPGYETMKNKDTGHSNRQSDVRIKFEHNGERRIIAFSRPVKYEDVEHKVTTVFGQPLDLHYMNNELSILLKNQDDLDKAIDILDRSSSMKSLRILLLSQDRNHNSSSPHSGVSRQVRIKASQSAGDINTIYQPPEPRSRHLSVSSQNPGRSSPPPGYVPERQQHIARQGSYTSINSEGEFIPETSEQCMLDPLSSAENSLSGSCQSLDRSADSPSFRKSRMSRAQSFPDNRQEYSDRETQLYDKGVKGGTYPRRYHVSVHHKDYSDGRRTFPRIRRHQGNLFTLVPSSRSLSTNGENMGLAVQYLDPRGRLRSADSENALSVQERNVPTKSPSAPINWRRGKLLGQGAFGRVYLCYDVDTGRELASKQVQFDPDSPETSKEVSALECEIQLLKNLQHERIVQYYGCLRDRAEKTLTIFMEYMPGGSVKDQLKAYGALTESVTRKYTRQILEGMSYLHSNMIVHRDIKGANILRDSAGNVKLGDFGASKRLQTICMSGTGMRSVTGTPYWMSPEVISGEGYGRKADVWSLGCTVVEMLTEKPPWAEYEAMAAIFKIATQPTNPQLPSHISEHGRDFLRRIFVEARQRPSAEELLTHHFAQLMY
UniProt O96017, sequence (whole entry, looked up): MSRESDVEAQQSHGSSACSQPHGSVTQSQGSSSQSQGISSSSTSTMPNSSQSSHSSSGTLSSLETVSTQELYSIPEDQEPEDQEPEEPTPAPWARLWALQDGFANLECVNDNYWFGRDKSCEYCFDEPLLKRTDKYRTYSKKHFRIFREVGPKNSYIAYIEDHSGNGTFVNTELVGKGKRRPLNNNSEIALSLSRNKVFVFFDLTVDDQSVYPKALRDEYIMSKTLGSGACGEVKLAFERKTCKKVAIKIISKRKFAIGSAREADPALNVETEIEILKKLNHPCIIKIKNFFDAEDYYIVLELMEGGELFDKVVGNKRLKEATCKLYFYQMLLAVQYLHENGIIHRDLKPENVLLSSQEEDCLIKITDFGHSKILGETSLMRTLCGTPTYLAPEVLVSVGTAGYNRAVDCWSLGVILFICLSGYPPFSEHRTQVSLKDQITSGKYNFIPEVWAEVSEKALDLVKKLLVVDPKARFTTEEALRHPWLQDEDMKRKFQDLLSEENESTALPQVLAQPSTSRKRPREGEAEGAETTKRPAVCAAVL
UniProt O95747, sequence (whole entry, looked up): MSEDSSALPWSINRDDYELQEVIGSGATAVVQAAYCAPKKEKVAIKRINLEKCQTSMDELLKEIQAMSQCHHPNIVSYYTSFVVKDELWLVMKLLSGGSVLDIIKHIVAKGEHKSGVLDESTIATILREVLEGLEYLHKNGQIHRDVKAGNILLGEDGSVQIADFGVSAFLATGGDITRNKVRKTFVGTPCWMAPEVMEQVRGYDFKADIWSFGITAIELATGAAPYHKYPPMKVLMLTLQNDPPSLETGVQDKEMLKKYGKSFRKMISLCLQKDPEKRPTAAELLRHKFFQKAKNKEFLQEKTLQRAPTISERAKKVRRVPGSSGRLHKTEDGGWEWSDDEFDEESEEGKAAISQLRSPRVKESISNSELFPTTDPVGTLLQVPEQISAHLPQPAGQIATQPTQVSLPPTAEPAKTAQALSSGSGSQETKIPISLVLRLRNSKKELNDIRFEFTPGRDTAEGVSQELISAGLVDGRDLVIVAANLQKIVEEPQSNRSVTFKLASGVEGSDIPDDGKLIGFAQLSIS
UniProt P49760, sequence (whole entry, looked up): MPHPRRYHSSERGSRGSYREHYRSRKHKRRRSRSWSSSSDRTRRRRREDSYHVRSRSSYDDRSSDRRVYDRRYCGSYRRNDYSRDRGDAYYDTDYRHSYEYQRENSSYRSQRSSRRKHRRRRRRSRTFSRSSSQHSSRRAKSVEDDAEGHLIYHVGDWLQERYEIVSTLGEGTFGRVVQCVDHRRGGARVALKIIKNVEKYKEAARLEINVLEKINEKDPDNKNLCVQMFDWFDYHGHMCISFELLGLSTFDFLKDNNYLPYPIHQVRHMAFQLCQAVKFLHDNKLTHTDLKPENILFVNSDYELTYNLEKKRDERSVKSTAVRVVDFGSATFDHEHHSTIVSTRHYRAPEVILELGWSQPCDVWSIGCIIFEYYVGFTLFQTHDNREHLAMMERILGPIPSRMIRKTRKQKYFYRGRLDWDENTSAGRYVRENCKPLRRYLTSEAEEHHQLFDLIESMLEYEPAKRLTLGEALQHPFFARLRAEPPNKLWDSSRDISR
UniProt P36897, sequence (whole entry, looked up): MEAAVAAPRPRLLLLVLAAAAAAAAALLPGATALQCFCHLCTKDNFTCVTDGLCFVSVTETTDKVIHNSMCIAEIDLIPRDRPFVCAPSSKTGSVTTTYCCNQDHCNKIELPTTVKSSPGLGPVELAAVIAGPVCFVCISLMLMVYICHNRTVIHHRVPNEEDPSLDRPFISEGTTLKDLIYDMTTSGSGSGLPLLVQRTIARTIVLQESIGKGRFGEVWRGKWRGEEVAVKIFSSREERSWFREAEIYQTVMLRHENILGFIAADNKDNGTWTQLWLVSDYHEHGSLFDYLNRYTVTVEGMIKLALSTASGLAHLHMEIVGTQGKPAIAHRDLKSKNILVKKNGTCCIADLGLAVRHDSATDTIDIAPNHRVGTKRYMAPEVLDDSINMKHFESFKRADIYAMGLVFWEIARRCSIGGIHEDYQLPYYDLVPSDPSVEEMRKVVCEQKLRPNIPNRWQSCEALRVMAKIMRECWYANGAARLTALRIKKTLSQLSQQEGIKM

Study 1 — mode: inhibitor; concentration: 10 µM; relative to: control
Target: Diamine acetyltransferase 1 (Homo sapiens, UniProt P21673)
Residues (P21673 1-171): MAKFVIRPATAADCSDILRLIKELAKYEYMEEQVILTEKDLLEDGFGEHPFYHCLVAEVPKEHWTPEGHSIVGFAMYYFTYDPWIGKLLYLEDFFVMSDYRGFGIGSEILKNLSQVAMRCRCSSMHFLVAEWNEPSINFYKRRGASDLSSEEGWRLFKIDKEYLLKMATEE
`CC(C)=CCc1cc2ccc(=O)oc2cc1O` gave a remaining activity of 87.8%.
The remaining activity of `COC(=O)C1=COC2OC3CC1C2C(C)O3` (centres unmarked) is reported as 100%.
For `CC(C)=CCC/C(C)=C/CC/C(C)=C/CC/C(C)=C/CC/C(C)=C/CC/C(C)=C/CC/C(C)=C/CC/C(C)=C/CC/C(C)=C/CO`, the remaining activity was 98.5%.
With `COC(=O)c1c(C)cc(O)c(C)c1O` the remaining activity was 102%.

Study 2 — read-out: enzyme activity; mode: inhibitor; concentration: 0.5 µM; relative to: control
SMILES: O=C1Nc2ccc(Br)cc2/C1=C/c1cc2c([nH]1)CCCC2
Death-associated protein kinase 1 (DAPK1, Homo sapiens, UniProt P53355) — remaining activity: 111%.
It gave 96.5% for remaining activity (cAMP-dependent protein kinase catalytic subunit alpha (PRKACA, Homo sapiens, UniProt P17612)).
For Serine/threonine-protein kinase STK11 (STK11, Homo sapiens, UniProt Q15831): remaining activity read 88.7%.
It gave 99.4% for remaining activity (Mitogen-activated protein kinase 9 (MAPK9, Homo sapiens, UniProt P45984)).
G protein-coupled receptor kinase 3 (GRK3, Homo sapiens, UniProt P35626) — remaining activity: 89.9%.
Protein kinase C beta type, isoform beta-I (PRKCB, Homo sapiens, UniProt P05771) — remaining activity: 97.4%.
For Tyrosine-protein kinase Lyn, isoform B (LYN, Homo sapiens, UniProt P07948): remaining activity read 86.8%.
The remaining activity was 68.1% (Calcium/calmodulin-dependent protein kinase kinase 2 (CAMKK2, Homo sapiens, UniProt Q96RR4)).
For Cyclin-dependent kinase 5, with p25 (CDK5, Homo sapiens, UniProt Q00535): remaining activity read 91.3%.
The remaining activity was 101% (TGF-beta receptor type-2 (TGFBR2, Homo sapiens, UniProt P37173)).
The remaining activity was 84.2% (Calcium/calmodulin-dependent protein kinase type II subunit delta (CAMK2D, Homo sapiens, UniProt Q13557)).
The remaining activity was 86% (STE20/SPS1-related proline-alanine-rich protein kinase (STK39, Homo sapiens, UniProt Q9UEW8)).
It gave 87.9% for remaining activity (cGMP-dependent protein kinase 1, isoform beta (PRKG1, Homo sapiens, UniProt Q13976)).
For Cyclin-dependent kinase 4, with cyclin D1 (CDK4, Homo sapiens, UniProt P11802): remaining activity read 97.9%.
Serine/threonine-protein kinase OSR1 (OXSR1, Homo sapiens, UniProt O95747) — remaining activity: 96.7%.
For Serine/threonine-protein kinase Nek2 (NEK2, Homo sapiens, UniProt P51955): remaining activity read 87.9%.
The remaining activity was 102% (Death-associated protein kinase 2 (DAPK2, Homo sapiens, UniProt Q9UIK4)).
Serine/threonine-protein kinase Chk2 (CHEK2, Homo sapiens, UniProt O96017) — remaining activity: 68.2%.
The remaining activity was 89.5% (Inhibitor of nuclear factor kappa-B kinase subunit epsilon (IKBKE, Homo sapiens, UniProt Q14164)).
It gave 102% for remaining activity (Protein kinase C alpha type (PRKCA, Homo sapiens, UniProt P17252)).
Mitogen-activated protein kinase kinase kinase 3 (MAP3K3, Homo sapiens, UniProt Q99759) — remaining activity: 88.5%.
It gave 100% for remaining activity (TGF-beta receptor type-1 (TGFBR1, Homo sapiens, UniProt P36897)).
It gave 102% for remaining activity (Inhibitor of nuclear factor kappa-B kinase subunit beta (IKBKB, Homo sapiens, UniProt O14920)).
It gave 65.5% for remaining activity (Serine/threonine-protein kinase 10 (STK10, Homo sapiens, UniProt O94804)).

Study 3 — read-out: binding; concentration: 1 µM
Structure (SMILES): COc1ccc2[nH]c3c4[nH]c5ccc(OC)cc5c4c4c(c3c2c1)C(=O)NC4=O
MAP kinase-interacting serine/threonine-protein kinase 1 (MKNK1, Homo sapiens, UniProt Q9BUB5); competition with immobilised ligand — remaining binding: 92%.
For Receptor tyrosine-protein kinase erbB-3 (ERBB3, Homo sapiens, UniProt P21860); competition with immobilised ligand: remaining binding read 85%.
The remaining binding was 47% (NT-3 growth factor receptor (NTRK3, Homo sapiens, UniProt Q16288); competition with immobilised ligand).
Dual specificity protein kinase CLK2 (CLK2, Homo sapiens, UniProt P49760) — remaining binding: 56%.
The remaining binding was 43% (Serine/threonine-protein kinase LATS2 (LATS2, Homo sapiens, UniProt Q9NRM7)).
Tyrosine-protein kinase Blk (BLK, Homo sapiens, UniProt P51451); competition with immobilised ligand — remaining binding: 71%.

Study 4 — cell line: mouse MPNST tumor cells; technique: high-content nuclear imaging; item: cell number; concentration: 10 µM; time: 12 h; notes: mean of 2 replicates; relative to: plate mean; reading: higher = more cells
For `CCN(CC)Cc1ccc(C(=O)N(CCc2ccccc2OC)[C@@H]2CCNC2)cc1`, the nuclei count was 1.69 z-score.
For `CCN(Cc1ccncc1)C(=O)C(CO)c1ccccc1` (centres unmarked), the nuclei count was -0.522 z-score and 0.799 z-score.
`CCOC(=O)O[C@]1(C(=O)COC(=O)CC)CC[C@H]2[C@@H]3CCC4=CC(=O)C=C[C@]4(C)[C@H]3[C@@H](O)C[C@@]21C` has a nuclei count of 2.07 z-score.
For `CC(ONC(=O)c1cc(C(F)(F)F)cc(C(F)(F)F)c1)C(=O)Nc1ccc(Cl)cc1` (centres unmarked), the nuclei count was 1.49 z-score.

Study 5 — technique: PRP chromatography; notes: linear fit, 1 mL
For `CC(C)C[C@@H]1NC(=O)[C@H](CC(C)C)NC(=O)[C@@H](CC(C)C)NC(=O)[C@H](CC(C)C)NC(=O)[C@@H](CCC(=O)N2CCCC2)NC(=O)[C@H](C)NC(=O)[C@H](C)NC1=O`, the logD 1,9-decadiene/water was -1.84 log units.
The logD 1,9-decadiene/water of `CC(C)C[C@@H]1NC(=O)[C@H](C)NC(=O)[C@H](C)NC(=O)[C@H](C)NC(=O)[C@H](C(C)C)NC(=O)[C@H](CC(C)C)NC(=O)[C@@H](CC(C)C)NC1=O` is reported as -2.3 log units.
The logD 1,9-decadiene/water of `CC(C)C[C@@H]1NC(=O)[C@H](C)NC(=O)[C@H](C)NC(=O)[C@H](CC(C)C)NC(=O)[C@H](C(C)C)NC(=O)[C@H](CC(C)C)NC(=O)[C@@H](CC(C)C)NC1=O` is reported as -1.01 log units.
`CC(C)C[C@@H]1NC(=O)[C@H](C)NC(=O)[C@@H](CC(C)C)NC(=O)[C@H](C)NC(=O)[C@H](CC(C)C)NC(=O)[C@H](CC(C)C)NC(=O)[C@@H](C(C)C)NC1=O` gave a logD 1,9-decadiene/water of -0.77 log units.
`CC(C)C[C@@H]1NC(=O)[C@H](CC(C)C)NC(=O)[C@@H](CC(C)C)NC(=O)[C@H](C)NC(=O)[C@@H](CCC(=O)N2CCCC2)NC(=O)[C@H](C)NC(=O)[C@H](C)NC1=O` gave a logD 1,9-decadiene/water of -3 log units.

Study 6 — Compound: CCN(c1nc(N)c(C(=O)N=C(N)N)nc1Cl)C(C)C; read-out: β-arrestin recruitment; mode: agonist; technique: PRESTO-Tango; concentration: 10 µM; relative to: untreated
For Lysophosphatidic acid receptor 4 (LPAR4, Homo sapiens, UniProt Q99677): “fold over basal” read 0.72.
Alpha-2B adrenergic receptor (ADRA2B, Homo sapiens, UniProt P18089) — “fold over basal”: 0.93.
It gave 4.62 for “fold over basal” (Somatostatin receptor type 1 (SSTR1, Homo sapiens, UniProt P30872)).
Vasopressin V2 receptor (AVPR2, Homo sapiens, UniProt P30518) — “fold over basal”: 1.25.
Trace amine-associated receptor 5 (TAAR5, Homo sapiens, UniProt O14804) — “fold over basal”: 1.25 fold.
The “fold over basal” was 0.83 (Prostaglandin D2 receptor (PTGDR, Homo sapiens, UniProt Q13258)).

Other studies, line by line
The viability of `CN(C)C(=O)N1CC[C@H](N=C2Nc3cc(F)ccc3N(CC(F)F)c3ccc(Cl)cc32)C1` is reported as 104% (sample BA colorectal tumour organoid; 0.1 µM; relative to: DMSO).

For quick reference, copied from above (study 2):
The remaining activity was 86% (STE20/SPS1-related proline-alanine-rich protein kinase (STK39, Homo sapiens, UniProt Q9UEW8)).
For Serine/threonine-protein kinase STK11 (STK11, Homo sapiens, UniProt Q15831): remaining activity read 88.7%.
Mitogen-activated protein kinase kinase kinase 3 (MAP3K3, Homo sapiens, UniProt Q99759) — remaining activity: 88.5%.
For Cyclin-dependent kinase 4, with cyclin D1 (CDK4, Homo sapiens, UniProt P11802): remaining activity read 97.9%.
The remaining activity was 84.2% (Calcium/calmodulin-dependent protein kinase type II subunit delta (CAMK2D, Homo sapiens, UniProt Q13557)).
